Measurements of several laboratories.
Protocols differ between the studies behind these lines. Numbers after ± are the reported error.

Molecule = maraviroc; test system = black CYP3A5 intermediate metabolizers, plasma; setting = 300 mg twice daily; endpoint = Tmax; value = 2 h
Molecule = deucravacitinib; test system = human; setting = oral, 3 mg, single dose; endpoint = apparent half-life; value = 11 h
Molecule = chicoric acid; target or system = IPEC-J2 monolayer; setting = 500 µM, monolayer cultured 14 d; endpoint = Papp apical to basolateral; value = 3.83 ± 0.38 nm/s
Molecule = semaglutide; test = item: action not applicable; test system = human, safety analysis set; setting = concentration not given, 32 weeks, run-in; endpoint = participants with adverse events; value = 2.1%

A few entries again:
Molecule = semaglutide; test = item: action not applicable; test system = human, safety analysis set; setting = concentration not given, 32 weeks, run-in; endpoint = participants with adverse events; value = 2.1%
